Published values collected from several papers.
A part holds a random share of what one study measured. Substitutions count along the parent as printed.

Series 1
Target: CCNB3, cyclin fold, Cln2 fusion (human)
Technique: yeast growth competition, sequencing
Medium: yeast
Notes: weak parent motif
Reference: not given
Reading: higher = stronger binding
Starting sequence: INSM1 docking peptide (human); PKAIRKLHFEDEV; partner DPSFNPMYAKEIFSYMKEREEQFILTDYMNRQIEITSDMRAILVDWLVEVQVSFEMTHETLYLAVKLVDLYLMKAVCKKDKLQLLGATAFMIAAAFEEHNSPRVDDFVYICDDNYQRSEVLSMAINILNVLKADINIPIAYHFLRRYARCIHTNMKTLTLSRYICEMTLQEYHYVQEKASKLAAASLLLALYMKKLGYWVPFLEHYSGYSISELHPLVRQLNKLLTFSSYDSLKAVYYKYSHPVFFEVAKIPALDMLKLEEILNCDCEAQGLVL
Change	normalised enrichment score
H8F	0.147
A3Q	0.0959
R5H	0.000861
D11P	0.222
F9N	-0.0895
K2E	0.19
K2Q	0.179
R5Y	0.131
E12A	0.685
E12G	0.32
F9V	0.116
E10T	0.152
H8P	0.392
E12P	0.532

Series 2
Target: Sal-like protein 4, full length isoform A (SALL4, Homo sapiens, UniProt Q9UJQ4, residues 1-1053)
Chain of UniProt Q9UJQ4 (whole entry, looked up): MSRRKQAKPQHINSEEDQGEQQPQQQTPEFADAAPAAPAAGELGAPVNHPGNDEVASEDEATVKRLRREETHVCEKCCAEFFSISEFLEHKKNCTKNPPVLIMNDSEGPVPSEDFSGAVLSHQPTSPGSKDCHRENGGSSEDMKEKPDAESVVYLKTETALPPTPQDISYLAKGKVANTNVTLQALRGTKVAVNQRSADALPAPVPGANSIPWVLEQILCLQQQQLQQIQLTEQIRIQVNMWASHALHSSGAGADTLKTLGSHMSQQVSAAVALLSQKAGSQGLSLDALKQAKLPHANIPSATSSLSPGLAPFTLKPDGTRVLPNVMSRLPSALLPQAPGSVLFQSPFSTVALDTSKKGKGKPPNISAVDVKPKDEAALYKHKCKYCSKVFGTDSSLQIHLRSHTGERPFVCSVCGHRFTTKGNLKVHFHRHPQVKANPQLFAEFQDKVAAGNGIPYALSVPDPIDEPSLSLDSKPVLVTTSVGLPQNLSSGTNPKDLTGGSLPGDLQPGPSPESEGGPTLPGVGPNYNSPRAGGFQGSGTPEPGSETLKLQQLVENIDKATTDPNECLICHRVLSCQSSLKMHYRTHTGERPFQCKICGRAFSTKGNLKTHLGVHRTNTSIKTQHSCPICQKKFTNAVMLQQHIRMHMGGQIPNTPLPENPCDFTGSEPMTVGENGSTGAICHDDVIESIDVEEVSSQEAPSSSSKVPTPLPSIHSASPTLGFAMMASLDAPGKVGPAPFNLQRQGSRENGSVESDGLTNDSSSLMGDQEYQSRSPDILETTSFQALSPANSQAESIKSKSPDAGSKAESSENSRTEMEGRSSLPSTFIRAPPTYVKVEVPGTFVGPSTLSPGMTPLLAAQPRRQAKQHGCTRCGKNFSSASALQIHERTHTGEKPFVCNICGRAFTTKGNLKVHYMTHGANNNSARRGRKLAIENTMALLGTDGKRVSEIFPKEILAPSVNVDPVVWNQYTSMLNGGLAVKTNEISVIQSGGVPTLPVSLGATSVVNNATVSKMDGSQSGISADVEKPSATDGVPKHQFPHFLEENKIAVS
Technique: universal PBM
Molecule type: double-stranded DNA, one strand shown
Medium: in vitro
Concentration: 600 nM
Notes: 8-mer, flanks averaged, mean of replicates
Reading: higher = stronger binding
Sequence	E-score
CGGTCACC	-0.357
AAGAAGTG	-0.0442
GGACCAAC	-0.269
ACCGTCGA	-0.168
CTGATGCC	-0.0405
GCGGGTCA	-0.263
CGATTAGC	-0.0917
AGACATGC	0.0202
ACTAGCAG	-0.00397
CGACCACA	-0.182
AGTTACAT	0.181
AACAGACG	-0.0807
CAATGGGC	-0.226
AGTATCGC	0.0344
ATACACTA	0.231
ATAAGTTG	0.174
CGCCTCCG	-0.284
AGGCCATC	-0.0583
CGATCAAA	0.00451

Series 3
Target: RING finger protein unkempt homolog, zinc fingers 1-6, GST-SBP tag (UNK, Homo sapiens, UniProt Q9C0B0, residues 30-357)
Technique: RNA Bind-n-Seq
Molecule type: RNA
Medium: in vitro
Concentration: not given
Notes: RNA with constant flanks, human and mouse sites, ends assumed
Reference: input RNA pool
Reading: higher = stronger binding
Residues (chain): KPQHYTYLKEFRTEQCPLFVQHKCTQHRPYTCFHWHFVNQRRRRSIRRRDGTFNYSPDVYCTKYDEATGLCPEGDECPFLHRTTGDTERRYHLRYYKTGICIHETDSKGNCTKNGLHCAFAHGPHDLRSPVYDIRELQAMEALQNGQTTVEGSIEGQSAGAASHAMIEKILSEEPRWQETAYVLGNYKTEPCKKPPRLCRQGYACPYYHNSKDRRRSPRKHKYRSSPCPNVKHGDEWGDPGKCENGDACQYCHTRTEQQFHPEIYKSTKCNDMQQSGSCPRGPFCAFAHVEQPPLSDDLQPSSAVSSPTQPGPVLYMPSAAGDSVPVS
Sequence	bound/input enrichment
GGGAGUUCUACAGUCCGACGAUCUGGAAAGAUGAAUUCAAGGCACACUCAAGGGUGAAGUGUCCAAACUCAGGGUGCUGGCUAGAGUUCCCCAGCAUCUAUGGGCUCAAGUACCACUAUCAGCGGUGCCAAGGGGUAAGGGGCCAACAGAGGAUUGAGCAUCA	0.296 ratio
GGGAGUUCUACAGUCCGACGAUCGCCCUCAGGAAGUUGAUUAAAACCUGCAGUGCAACAGUUUUAGAUACUGAUUAGUGACUUCAAAGGGAAAUCAAGGAAAGACCAGUUUGCAUUUAUGCGAAAUCUGUGGUUGUAAAUUUUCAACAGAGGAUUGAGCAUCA	0.398 ratio
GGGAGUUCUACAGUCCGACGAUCAUUUGUUUUGUGAAUGACCCACGGCCCCAGCACAAGUACAAUAAAUUGUACACAGUAGACUACUUGAGCAAUAUGGUUGGAGGGAGAAAAACGCUGUAUAACAACCAGCCCAUUGACUUCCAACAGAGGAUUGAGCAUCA	0.125 ratio
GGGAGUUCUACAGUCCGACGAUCGACAUCCAGGCGUGUGUGGACCAUGUGAACCUGGUGGUCCAUGAGGAGCAUGAGCGGAUUUUGGCCAUCGGCUUGAUUAAUGAAGCCCUGGAUGAAGGGGACGCUCAGAAGACUCUGCAGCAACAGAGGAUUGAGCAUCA	0.16 ratio
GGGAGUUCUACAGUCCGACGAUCCGAGUUCUGGCAGCUUUACAGGAGCGACUUGACAAUGUCCCUCACACCCCUUCCAGCUACAUCGAAACUUUACCUAAAGCAGUAAAAAGAAGAAUUAAUGCAUUGAAACAACUUCAGGUGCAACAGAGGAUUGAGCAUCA	0.139 ratio
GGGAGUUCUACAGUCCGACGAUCUGGAGAGUGGGACCAAGACCCUUGGCCCCUGUGGAGGGGAACCACCUCCCCCCUCCUUCCCAGAGCUUCUGGAUGUUGUGGGAGGGAGGUGGGGGUGCCUGGCAGGCUCACCCCCAGGGGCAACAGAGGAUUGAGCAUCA	0.102 ratio
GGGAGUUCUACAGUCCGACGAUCAACUUUGUACAUAGAUUUCCUUUUGUAGCUGUUUCAAUUGGCUUUGCUGUAAAUAAAAAGAUAGAAUUUGGAGUUGUGUACAGUUGUGUGGAAGGCAAGAUGUACACUGCCAGAAAAGGACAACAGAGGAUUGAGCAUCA	2.94 ratio
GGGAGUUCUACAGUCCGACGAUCGGGGUCGGGGCGGUGCGGGUGUGCGCGCGCCGACCUCUGGCGCGUUCUAACCCGCGCGCCUGCCUUCCCGGGCUUCGUCGGCGCGCACCGAUUUCCGCAUCCGGCUCCGGACGCUUCCGGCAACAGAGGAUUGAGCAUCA	0.071 ratio
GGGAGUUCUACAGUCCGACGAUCGAAGCUGCAGCACUACUAGAAAGUGGUAGUUCAGUGGGCGAUGAGACCGAUCUUGCUAAUUUAGGGGAUGUAUCUUCUGAUGGGAAAAAGGAGCCUUCAGAUAAAGCUGUGAAAAAAGAUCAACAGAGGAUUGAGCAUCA	0.922 ratio
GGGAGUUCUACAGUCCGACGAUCAAGACAUCACUCAUGAACCAGUAUGUGAAUAAGAAAUUCAGCAAUCAGUACAAAGCCACAAUAGGAGCUGACUUUCUGACCAAGGAGGUGAUGGUGGAUGACAGGCUAGUCACAAUGCAGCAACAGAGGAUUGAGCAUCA	0.32 ratio
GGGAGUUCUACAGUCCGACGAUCCCAUCAGGACACAGGCUCCGGGACGUCGAGCAUCAUCCUCUCCUGGCUGAAAAUGACAACUAUGACUCUUCAUCGUCCUCCUCCUCCGAGGCUGACGUGGCUGACCGGGUCUGGUUCAUCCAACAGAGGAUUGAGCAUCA	0.0489 ratio

Series 4
Target: UBE2U UBC core domain (UniProt Q5VVX9)
Technique: yeast two-hybrid
Medium: yeast
Notes: mostly zero background
Reference: not given
Reading: higher = stronger interaction
B1: RNF135 RING domain (UniProt Q8IUD6); chain PVWLAEDDLGCIICQGLLDWPATLPCGHSFCRHCLEALWGARDARRWACPTCRQGAAQQPHLR
B2: TRIM22 RING domain (UniProt Q8IYM9); chain KEVKMSPQEGQKRDVCEHHGKKLQIFCKEDGKVICWVCELSQEHQGHQTFRINEVVKECQEK
B3: RNF181 RING domain (UniProt Q9P0P0); chain VIRGSQAELKCPVCLLEFEEEETAIEMPCHHLFHSSCILPWLSKTNSCPLCRYELPTDDDTY
B4: DTX1 RING domain (UniProt Q86Y01); chain QKVKNPPDEDCTICMERLVTASGYEGVLRHKGVRPELVGRLGRCGHMYHLLCLVAMYSNGNKDGSLQCPTCKAIYGEKTGTQ
B5: ZNRF3 RING domain (UniProt Q9ULT6); chain DTLSSSSTSDCAICLEKYIDGEELRVIPCTHRFHRKCVDPWLLQHHTCPHCRHNIIEQKGNP
Residues (chain): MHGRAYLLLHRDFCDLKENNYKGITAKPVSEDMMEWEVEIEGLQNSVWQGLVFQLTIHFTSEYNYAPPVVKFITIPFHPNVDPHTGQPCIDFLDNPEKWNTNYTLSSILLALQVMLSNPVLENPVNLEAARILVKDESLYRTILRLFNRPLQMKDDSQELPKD
Sequence	lacZ reporter activity
B1 (RNF135 RING domain)	12000
B2 (TRIM22 RING domain)	0
B3 (RNF181 RING domain)	16100
ALDRLEKLLRCSRCTNILREPVCLGGCEHIFCSNCVSDCIGTGCPVCYTPAWIQDLKI (BARD1 RING domain (UniProt Q99728))	13600
B4 (DTX1 RING domain)	6700
NTAPSLTVPECAICLQTCVHPVSLPCKHVFCYLCVKGASWLGKRCALCRQEIPEDFLDK (RNF146 RING domain (UniProt Q9NTX7))	3320
B5 (ZNRF3 RING domain)	0

Other studies, line by line
Technique: two-hybrid
Reference: out of 4 tests
Reading: higher = firmer interaction
T1: itself; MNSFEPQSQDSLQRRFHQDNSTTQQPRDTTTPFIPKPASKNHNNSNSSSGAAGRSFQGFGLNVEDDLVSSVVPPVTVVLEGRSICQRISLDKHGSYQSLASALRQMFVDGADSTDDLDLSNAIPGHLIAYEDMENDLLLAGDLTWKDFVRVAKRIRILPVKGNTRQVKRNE
T2: itself; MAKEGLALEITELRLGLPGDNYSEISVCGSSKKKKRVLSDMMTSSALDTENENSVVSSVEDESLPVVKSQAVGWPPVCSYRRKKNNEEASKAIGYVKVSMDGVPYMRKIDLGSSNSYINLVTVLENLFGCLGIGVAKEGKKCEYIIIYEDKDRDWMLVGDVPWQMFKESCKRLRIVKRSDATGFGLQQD
T3: itself; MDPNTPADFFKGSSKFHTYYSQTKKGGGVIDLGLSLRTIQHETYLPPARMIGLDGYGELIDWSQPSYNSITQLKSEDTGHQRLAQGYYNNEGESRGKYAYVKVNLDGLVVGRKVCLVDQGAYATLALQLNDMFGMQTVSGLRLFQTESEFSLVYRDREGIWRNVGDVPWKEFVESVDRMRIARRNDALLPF
B6: IAA33 (Arabidopsis thaliana, UniProt Q9FKM7); chain MNSFEPQSQDSLQRRFHQDNSTTQQPRDTTTPFIPKPASKNHNNSNSSSGAAGRSFQGFGLNVEDDLVSSVVPPVTVVLEGRSICQRISLDKHGSYQSLASALRQMFVDGADSTDDLDLSNAIPGHLIAYEDMENDLLLAGDLTWKDFVRVAKRIRILPVKGNTRQVKRNE
B7: IAA6 (Arabidopsis thaliana, UniProt Q38824); chain MAKEGLALEITELRLGLPGDNYSEISVCGSSKKKKRVLSDMMTSSALDTENENSVVSSVEDESLPVVKSQAVGWPPVCSYRRKKNNEEASKAIGYVKVSMDGVPYMRKIDLGSSNSYINLVTVLENLFGCLGIGVAKEGKKCEYIIIYEDKDRDWMLVGDVPWQMFKESCKRLRIVKRSDATGFGLQQD
B8: IAA32 (Arabidopsis thaliana, UniProt Q8RYC6); chain MDPNTPADFFKGSSKFHTYYSQTKKGGGVIDLGLSLRTIQHETYLPPARMIGLDGYGELIDWSQPSYNSITQLKSEDTGHQRLAQGYYNNEGESRGKYAYVKVNLDGLVVGRKVCLVDQGAYATLALQLNDMFGMQTVSGLRLFQTESEFSLVYRDREGIWRNVGDVPWKEFVESVDRMRIARRNDALLPF
Sequence	partner	positive tests
B6 (IAA33)	T1, itself	1
B7 (IAA6)	T2, itself	0
B8 (IAA32)	T3, itself	0

A few entries again (series 3):
Sequence	bound/input enrichment
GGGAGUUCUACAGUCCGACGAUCAAGACAUCACUCAUGAACCAGUAUGUGAAUAAGAAAUUCAGCAAUCAGUACAAAGCCACAAUAGGAGCUGACUUUCUGACCAAGGAGGUGAUGGUGGAUGACAGGCUAGUCACAAUGCAGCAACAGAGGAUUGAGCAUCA	0.32 ratio
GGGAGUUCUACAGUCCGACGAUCGCCCUCAGGAAGUUGAUUAAAACCUGCAGUGCAACAGUUUUAGAUACUGAUUAGUGACUUCAAAGGGAAAUCAAGGAAAGACCAGUUUGCAUUUAUGCGAAAUCUGUGGUUGUAAAUUUUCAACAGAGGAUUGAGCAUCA	0.398 ratio
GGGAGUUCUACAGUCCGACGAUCAUUUGUUUUGUGAAUGACCCACGGCCCCAGCACAAGUACAAUAAAUUGUACACAGUAGACUACUUGAGCAAUAUGGUUGGAGGGAGAAAAACGCUGUAUAACAACCAGCCCAUUGACUUCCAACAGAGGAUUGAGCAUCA	0.125 ratio
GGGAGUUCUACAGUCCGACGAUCUGGAGAGUGGGACCAAGACCCUUGGCCCCUGUGGAGGGGAACCACCUCCCCCCUCCUUCCCAGAGCUUCUGGAUGUUGUGGGAGGGAGGUGGGGGUGCCUGGCAGGCUCACCCCCAGGGGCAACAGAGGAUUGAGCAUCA	0.102 ratio
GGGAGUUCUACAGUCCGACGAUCAACUUUGUACAUAGAUUUCCUUUUGUAGCUGUUUCAAUUGGCUUUGCUGUAAAUAAAAAGAUAGAAUUUGGAGUUGUGUACAGUUGUGUGGAAGGCAAGAUGUACACUGCCAGAAAAGGACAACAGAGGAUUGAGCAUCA	2.94 ratio
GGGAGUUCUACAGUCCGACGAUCGACAUCCAGGCGUGUGUGGACCAUGUGAACCUGGUGGUCCAUGAGGAGCAUGAGCGGAUUUUGGCCAUCGGCUUGAUUAAUGAAGCCCUGGAUGAAGGGGACGCUCAGAAGACUCUGCAGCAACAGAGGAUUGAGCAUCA	0.16 ratio
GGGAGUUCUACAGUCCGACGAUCCGAGUUCUGGCAGCUUUACAGGAGCGACUUGACAAUGUCCCUCACACCCCUUCCAGCUACAUCGAAACUUUACCUAAAGCAGUAAAAAGAAGAAUUAAUGCAUUGAAACAACUUCAGGUGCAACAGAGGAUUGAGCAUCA	0.139 ratio
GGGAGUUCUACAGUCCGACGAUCGGGGUCGGGGCGGUGCGGGUGUGCGCGCGCCGACCUCUGGCGCGUUCUAACCCGCGCGCCUGCCUUCCCGGGCUUCGUCGGCGCGCACCGAUUUCCGCAUCCGGCUCCGGACGCUUCCGGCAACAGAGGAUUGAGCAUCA	0.071 ratio
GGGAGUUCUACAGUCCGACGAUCCCAUCAGGACACAGGCUCCGGGACGUCGAGCAUCAUCCUCUCCUGGCUGAAAAUGACAACUAUGACUCUUCAUCGUCCUCCUCCUCCGAGGCUGACGUGGCUGACCGGGUCUGGUUCAUCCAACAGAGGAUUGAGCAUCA	0.0489 ratio
